Assay results gathered from unrelated publications.
Parts stem from different laboratories: compare values within a part only. Values joined by “and” are separate records of one study, mostly repeats; a detail may differ.
Sequence of UniProt O75417 (whole entry, unmodified, looked up): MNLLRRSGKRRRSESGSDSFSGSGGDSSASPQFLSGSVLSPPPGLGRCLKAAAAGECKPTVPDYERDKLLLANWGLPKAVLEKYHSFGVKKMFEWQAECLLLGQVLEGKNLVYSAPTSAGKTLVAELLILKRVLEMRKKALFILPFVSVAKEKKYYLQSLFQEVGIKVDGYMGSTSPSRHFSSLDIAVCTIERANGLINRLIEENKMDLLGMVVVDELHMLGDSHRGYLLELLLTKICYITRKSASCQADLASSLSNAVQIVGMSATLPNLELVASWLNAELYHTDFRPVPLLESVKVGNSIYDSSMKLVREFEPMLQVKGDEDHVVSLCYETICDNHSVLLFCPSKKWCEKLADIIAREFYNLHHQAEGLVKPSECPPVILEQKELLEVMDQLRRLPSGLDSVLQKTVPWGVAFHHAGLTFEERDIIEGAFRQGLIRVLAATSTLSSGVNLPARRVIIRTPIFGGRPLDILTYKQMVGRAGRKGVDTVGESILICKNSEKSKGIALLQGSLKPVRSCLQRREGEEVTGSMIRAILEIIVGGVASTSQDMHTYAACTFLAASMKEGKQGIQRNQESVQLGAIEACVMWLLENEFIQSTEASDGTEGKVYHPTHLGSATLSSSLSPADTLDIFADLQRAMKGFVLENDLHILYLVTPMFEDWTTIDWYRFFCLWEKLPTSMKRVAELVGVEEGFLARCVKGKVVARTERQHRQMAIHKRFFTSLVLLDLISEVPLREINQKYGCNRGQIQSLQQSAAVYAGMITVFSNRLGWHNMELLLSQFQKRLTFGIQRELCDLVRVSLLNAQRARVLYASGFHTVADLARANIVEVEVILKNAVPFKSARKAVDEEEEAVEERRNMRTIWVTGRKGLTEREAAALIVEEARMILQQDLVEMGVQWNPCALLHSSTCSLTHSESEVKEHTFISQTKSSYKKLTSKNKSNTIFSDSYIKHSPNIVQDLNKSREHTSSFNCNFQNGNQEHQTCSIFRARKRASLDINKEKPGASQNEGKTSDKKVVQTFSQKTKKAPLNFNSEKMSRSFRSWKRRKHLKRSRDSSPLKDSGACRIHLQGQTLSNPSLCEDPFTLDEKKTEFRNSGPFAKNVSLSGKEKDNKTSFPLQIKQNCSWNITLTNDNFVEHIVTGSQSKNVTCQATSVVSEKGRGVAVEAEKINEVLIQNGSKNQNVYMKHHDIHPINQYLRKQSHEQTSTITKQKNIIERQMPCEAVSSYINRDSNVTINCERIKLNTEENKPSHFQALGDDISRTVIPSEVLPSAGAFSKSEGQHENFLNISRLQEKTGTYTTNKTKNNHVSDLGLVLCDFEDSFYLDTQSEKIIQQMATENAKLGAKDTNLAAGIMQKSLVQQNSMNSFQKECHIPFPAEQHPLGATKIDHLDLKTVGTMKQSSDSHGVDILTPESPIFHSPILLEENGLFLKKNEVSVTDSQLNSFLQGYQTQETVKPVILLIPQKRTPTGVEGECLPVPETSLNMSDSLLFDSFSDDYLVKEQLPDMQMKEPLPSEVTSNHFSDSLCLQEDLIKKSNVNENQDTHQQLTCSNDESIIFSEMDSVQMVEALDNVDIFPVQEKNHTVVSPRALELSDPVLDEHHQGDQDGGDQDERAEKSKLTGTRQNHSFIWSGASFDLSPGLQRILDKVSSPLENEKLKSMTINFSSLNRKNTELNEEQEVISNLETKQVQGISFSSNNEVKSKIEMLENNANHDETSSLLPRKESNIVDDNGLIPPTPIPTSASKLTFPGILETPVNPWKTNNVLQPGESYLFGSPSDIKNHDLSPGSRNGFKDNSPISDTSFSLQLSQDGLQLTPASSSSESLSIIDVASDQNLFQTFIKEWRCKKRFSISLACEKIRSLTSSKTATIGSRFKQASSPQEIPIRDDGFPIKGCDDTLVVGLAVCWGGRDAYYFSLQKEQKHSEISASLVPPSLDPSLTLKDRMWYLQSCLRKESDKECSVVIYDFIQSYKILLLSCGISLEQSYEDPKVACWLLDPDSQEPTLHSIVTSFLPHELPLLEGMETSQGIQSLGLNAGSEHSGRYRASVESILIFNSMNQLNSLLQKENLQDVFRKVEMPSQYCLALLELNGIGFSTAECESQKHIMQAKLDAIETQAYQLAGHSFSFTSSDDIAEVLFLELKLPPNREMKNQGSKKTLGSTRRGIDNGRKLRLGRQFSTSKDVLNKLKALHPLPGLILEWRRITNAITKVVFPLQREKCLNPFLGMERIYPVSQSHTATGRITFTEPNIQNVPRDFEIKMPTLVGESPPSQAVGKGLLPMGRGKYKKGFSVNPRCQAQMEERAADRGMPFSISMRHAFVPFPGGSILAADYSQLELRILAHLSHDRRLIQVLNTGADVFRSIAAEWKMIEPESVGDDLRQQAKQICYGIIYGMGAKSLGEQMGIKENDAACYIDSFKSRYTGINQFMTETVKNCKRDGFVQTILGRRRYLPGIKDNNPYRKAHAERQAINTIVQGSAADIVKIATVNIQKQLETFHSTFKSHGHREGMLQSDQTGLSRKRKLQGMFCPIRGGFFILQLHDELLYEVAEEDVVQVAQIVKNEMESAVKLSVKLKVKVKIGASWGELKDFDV

Block 1
Target: Serine/threonine-protein kinase B-raf (BRAF, Homo sapiens, UniProt P15056)
Sequence of UniProt P15056 (whole entry, looked up): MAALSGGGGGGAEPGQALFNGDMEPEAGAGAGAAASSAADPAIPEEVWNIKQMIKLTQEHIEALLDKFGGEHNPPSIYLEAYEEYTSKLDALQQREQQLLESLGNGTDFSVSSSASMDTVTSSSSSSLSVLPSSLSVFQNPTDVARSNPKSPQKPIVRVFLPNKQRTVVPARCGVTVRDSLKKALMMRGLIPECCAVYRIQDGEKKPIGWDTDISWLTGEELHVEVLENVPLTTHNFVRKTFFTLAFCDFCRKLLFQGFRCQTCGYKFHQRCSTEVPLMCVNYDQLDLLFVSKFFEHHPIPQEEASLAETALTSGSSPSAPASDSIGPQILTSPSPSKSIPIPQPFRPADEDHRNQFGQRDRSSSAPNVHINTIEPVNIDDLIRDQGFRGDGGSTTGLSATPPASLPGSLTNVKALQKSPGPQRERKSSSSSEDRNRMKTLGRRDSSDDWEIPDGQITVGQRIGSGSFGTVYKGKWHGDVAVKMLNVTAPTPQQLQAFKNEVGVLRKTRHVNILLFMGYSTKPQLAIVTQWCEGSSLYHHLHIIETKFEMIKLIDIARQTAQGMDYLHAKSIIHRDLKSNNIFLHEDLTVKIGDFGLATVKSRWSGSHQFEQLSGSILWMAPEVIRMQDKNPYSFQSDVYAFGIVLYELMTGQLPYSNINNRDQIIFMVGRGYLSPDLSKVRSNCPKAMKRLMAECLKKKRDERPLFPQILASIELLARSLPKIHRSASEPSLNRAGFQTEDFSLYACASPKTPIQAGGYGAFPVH
Read-out: enzyme activity
Mode: inhibitor
Tested at: 0.5 µM
Reference: control
Quantity: remaining activity
O=C1NC(=O)/C(=C/c2ccc3nccnc3c2)S1: 95.1%
COc1cc2ncnc(N3CCN(C(=O)Nc4ccc(Oc5ccccc5)cc4)CC3)c2cc1OC: 92.6%
CCC(=O)Nc1ccc2ncnc(Nc3cccc(Br)c3)c2c1: 93%
CC(=O)O/N=C1/C(c2c(O)[nH]c3cc(Br)ccc23)=Nc2ccccc21: 97.9%
COc1cc2ncc(-c3ccccc3)nc2cc1OC: 93.2%
CN(C)CCCn1cc(C2=C(c3c[nH]c4ccccc34)C(=O)NC2=O)c2ccccc21: 103%
Cn1cnc2cc3c(Nc4cccc(Br)c4)ncnc3cc21: 94.2%

Block 2
Target: Beta-3 adrenergic receptor (ADRB3, Homo sapiens, UniProt P13945)
Sequence of UniProt P13945 (whole entry, looked up): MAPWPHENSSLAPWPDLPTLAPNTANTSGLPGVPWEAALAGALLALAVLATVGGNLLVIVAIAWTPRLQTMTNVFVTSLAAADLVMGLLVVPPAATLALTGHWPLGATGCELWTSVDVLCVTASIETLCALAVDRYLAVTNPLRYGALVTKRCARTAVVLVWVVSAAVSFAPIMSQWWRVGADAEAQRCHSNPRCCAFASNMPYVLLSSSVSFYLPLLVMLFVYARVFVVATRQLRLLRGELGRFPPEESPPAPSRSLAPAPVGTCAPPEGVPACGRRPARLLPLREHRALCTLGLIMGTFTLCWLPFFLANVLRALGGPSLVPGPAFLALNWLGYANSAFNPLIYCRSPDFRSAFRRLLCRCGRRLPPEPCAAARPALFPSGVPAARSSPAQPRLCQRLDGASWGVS
Read-out: binding
Method: radioligand binding
Tested at: 10 µM
Quantity: inhibition
CCOCCn1cc(C(=O)Nc2ccc(-n3nc(-c4cccnc4)cc3C(F)(F)F)cn2)ccc1=O: -18.5%
CCCOc1ccc([C@H]2[C@H](C(=O)O)[C@@H](c3ccc4c(c3)OCO4)CN2CC(=O)Nc2c(CC)cccc2CC)cc1: 13.3%
Cc1nc(Cc2cccc(C(F)(F)F)c2)sc1-c1ccc(C(N)=O)nc1: -1.63%
CC(=O)N1CCC(c2ccc(C(=O)NC(=N)N)cc2C(F)(F)F)CC1: 5.47%
CN([C@@H]1CCc2c(CC(=O)O)c3cc(S(C)(=O)=O)ccc3n2C1)S(=O)(=O)c1ccc(F)cc1: 0.851%
O=C([C@H]1C[C@H](O)CN1c1ccc(Cl)cc1)N1CC2COCC(C1)N2Cc1ccc(Cl)cc1: -9.84%
O=C(Nc1ccc(-n2nc(-c3cccnc3)cc2C(F)(F)F)cn1)c1ccc(-c2ccccc2)c(F)c1: -0.78%
Cc1c[nH]c2nccc(Oc3c(F)cc(Nc4cc(Cl)nc(N)n4)cc3F)c12: 22%
CC(C)CC(=O)N1CCc2nc(-c3ccc(Br)cc3)nc(N(C)Cc3ccccc3)c2C1: 12.3%
CNC(=O)c1ccc(Nc2ncc(C(F)(F)F)c(NCc3nccnc3N(C)S(C)(=O)=O)n2)cc1: 4.63%
CCOC(=O)c1cc2cc(-c3cc(C(=O)NCc4ccc(C(=O)O)cc4)nn3C)ccc2[nH]1: -6.63%
COCCc1ccc(-c2c(C)nc3c(N4CCOCC4)ccnn23)cn1: -11.2%
CN(C)C(=O)Cn1cc(-c2nc([C@@](C)(c3ccc(-c4cnc(N)nc4)cc3)C3CC3)no2)cn1: 9.54%

Block 3
Cell line: mouse MPNST tumor cells
Method: high-content nuclear imaging
Refers to: cell number
Tested at: 10 µM
Time: 12 h
Notes: mean of 2 replicates
Reference: plate mean
Direction: higher = more cells
Quantity: nuclei count
COc1ccc(OC)c(C2C(C#N)=C(N)Oc3n[nH]c(-c4ccc5ccccc5c4)c32)c1 (stereo not drawn): -0.216 z-score
Cc1coc2c1C(=O)C(=O)c1c-2ccc2c(C)cccc12: -0.684 z-score
COc1ccc(OCC2c3cc(OC)c(OC)cc3CCN2C(=O)c2cccc(Cl)c2)cc1 (stereo not drawn): -0.393 z-score
CCCOc1cc(N)ccc1C(=O)OCCN(CC)CC: 0.184 z-score
CCCCCCC[N+](CC)(CC)CCCCc1ccc(Cl)cc1: -3.27 z-score
COc1cc([C@@H]2c3cc4c(cc3[C@@H](O[C@@H]3O[C@@H]5CO[C@@H](C)O[C@H]5[C@H](O)[C@H]3O)[C@H]3COC(=O)[C@H]23)OCO4)cc(OC)c1O: -2.93 z-score and -3.33 z-score

Other studies, line by line
CC[C@]12CCCN3CCc4c(n(c5ccccc45)[C@](O)(C(=O)OC)C1)[C@@H]32
remaining activity (DNA polymerase theta, ATPase domain (POLQ, Homo sapiens, UniProt O75417); enzyme activity, inhibitor; 77 µM; reference: untreated): 93.2%

Excerpt of the above (block 2):
CCOC(=O)c1cc2cc(-c3cc(C(=O)NCc4ccc(C(=O)O)cc4)nn3C)ccc2[nH]1: -6.63%
